{"data": "Results pooled from the literature", "note": "Each line is one published result; not all experiments were run side by side. ± marks the error that the study gave."}
{"Structure (SMILES)": "COc1ccnc(C(=O)N[C@H]2COC(=O)[C@H](Cc3ccccc3)[C@@H](OC(=O)C(C)C)[C@H](C)OC2=O)c1OCOC(=O)C(C)C", "organism": "Oncorhynchus mykiss", "test": "flow-through", "conditions": "96 h", "endpoint": "LC50", "value": "0.0022 µg/mL"}
{"Structure (SMILES)": "Fc1ccc(C2=CCNCC2)cc1", "organism": "Salmonella typhimurium", "test": "SOS/umu test", "test system": "TA1535/pSK1002", "conditions": "0.016 mg/mL, 4 h, with S9, full range", "endpoint": "survival", "value": "101%"}
{"Structure (SMILES)": "[Cl-].[Cl-].[Pt+2].[Ru+2].c1ccc(-c2nc3ccccc3nc2-c2ccccn2)nc1.c1cnc2c(c1)ccc1cccnc12.c1cnc2c(c1)ccc1cccnc12", "organism": "Danio rerio", "test system": "embryos", "conditions": "90 µM, 96 h", "endpoint": "hatching rate", "value": "3.33 ± 2.7%"}
{"Structure (SMILES)": "CNC(=O)c1c(N(C)N=O)ncn1C", "organism": "Salmonella typhimurium", "test": "mutagenicity, Ames plate incorporation", "test system": "TA1535", "conditions": "1500 µg/plate, without S9, methanol", "endpoint": "revertant colonies per plate", "value": "16 ± 3"}
{"Structure (SMILES)": "COc1cccc(-c2n[nH]c(SCc3ccccn3)n2)c1OC", "organism": "Escherichia coli", "test": "Ames test, preincubation", "test system": "WP2 uvrA", "conditions": "0.50 mg/plate, with rat liver S9", "endpoint": "revertant colonies per plate", "value": 22}
{"Structure (SMILES)": "Cc1cc(C(=O)NC(C)(C)COc2cccc3c2C(N)=NS(=O)(=O)N3)cc(C)n1", "organism": "Escherichia coli", "test": "Ames test, confirmatory", "test system": "WP2 uvrA", "conditions": "1000 µg/plate, with: rat liver S9", "scale": "reference: solvent control", "endpoint": "revertant ratio", "value": 1.1}
{"Structure (SMILES)": "[Cl-].[Cl-].[Pt+2].[Ru+2].c1ccc(-c2nc3cc4ccccc4cc3nc2-c2ccccn2)nc1.c1cnc2c(c1)ccc1cccnc12.c1cnc2c(c1)ccc1cccnc12", "organism": "Danio rerio", "test system": "embryos", "conditions": "75 µM, 48 h", "endpoint": "survival rate", "value": "76.7 ± 3.7%"}
{"Structure (SMILES)": "OC(CCN1CC=C(c2ccc(F)cc2)CC1)c1ccc(F)c2ccccc12 (stereo not drawn)", "organism": "Salmonella typhimurium", "test": "genotoxicity, SOS/umu test", "test system": "TA1535/pSK1002", "conditions": "0.002 mg/mL, 4 h, without S9, full range", "endpoint": "induction factor", "value": 1}
{"Structure (SMILES)": "COc1ccnc(C(=O)N[C@H]2COC(=O)[C@H](Cc3ccccc3)[C@@H](O)[C@H](C)OC2=O)c1O", "organism": "Oncorhynchus mykiss", "test": "mortality, static-renewal water exposure", "conditions": "96 h", "endpoint": "LC50", "value": "> 2 µg/mL"}
{"Structure (SMILES)": "CC[C@H](C)[C@H](NC(=O)[C@H](CCCCN)NC(=O)[C@@H](NC(=O)[C@H](Cc1ccc(O)cc1)NC(=O)[C@H](CCCCN)NC(=O)[C@H](CCCCN)NC(=O)CNC(=O)[C@H](CCCCN)NC(=O)[C@@H](NC(=O)[C@H](C)NC(=O)[C@H](CC(C)C)NC(=O)[C@H](Cc1c[nH]c2ccccc12)NC(=O)CNC(=O)[C@@H](NC(=O)[C@H](Cc1ccccc1)NC(=O)[C@H](CCCCN)NC(=O)[C@H](CC(C)C)NC(=O)[C@H](Cc1ccccc1)NC(=O)[C@H](C)NC(=O)CNC(=O)[C@@H](N)CCSC)C(C)C)[C@@H](C)O)C(C)C)C(=O)N[C@@H](C)C(=O)N[C@@H](Cc1c[nH]c2ccccc12)C(=O)N[C@@H](CC(=O)O)C(=O)N[C@@H](Cc1c[nH]cn1)C(=O)N[C@@H](CCCCN)C(=O)NCC(=O)N[C@H](C(=O)N[C@H](C(=O)N[C@@H](CCSC)C(=O)N[C@@H](CCCCN)C(=O)N[C@@H](Cc1c[nH]c2ccccc12)C(=O)N[C@@H](CC(C)C)C(=O)N[C@@H](CC(N)=O)C(=O)N[C@@H](C)C(=O)NCC(=O)N[C@@H](CCC(N)=O)C(=O)N[C@H](C(=O)N[C@@H](Cc1ccccc1)C(=O)N[C@H](C(=O)N[C@@H](Cc1c[nH]c2ccccc12)C(=O)N[C@H](C(=O)N[C@@H](Cc1ccc(O)cc1)C(=O)N[C@@H](CCC(=O)O)C(=O)N[C@@H](CCC(N)=O)C(=O)N[C@H](C(=O)N[C@@H](CCCCN)C(=O)N[C@@H](CCCCN)C(=O)N[C@@H](CC(C)C)C(=O)N[C@@H](Cc1c[nH]c2ccccc12)C(=O)N[C@H](C(=O)O)[C@@H](C)O)[C@@H](C)CC)C(C)C)[C@@H](C)O)[C@@H](C)O)[C@@H](C)CC)[C@@H](C)O", "organism": "Pediococcus damnosus", "test system": "CECT 4797", "conditions": "30 min, 100 °C", "endpoint": "MIC after heating", "value": "24 µg/mL"}
{"Structure (SMILES)": "C[C@@H]1O[C@@H](O[C@H]2C[C@@H](O)[C@]3(CO)[C@H]4[C@H](O)C[C@]5(C)[C@@H](C6=CC(=O)OC6)CC[C@]5(O)[C@@H]4CC[C@]3(O)C2)[C@H](O)[C@H](O)[C@H]1O", "organism": "Oncopeltus fasciatus", "test": "HPLC-UV", "test system": "adult whole body", "conditions": "diet, 0.59 mg/g dry diet", "endpoint": "sequestered amount", "value": "1.09 mg/g dry mass"}
{"Structure (SMILES)": "O=[N+]([O-])c1ccc(N2CCN(CCC(O)c3ccc(F)cc3)CC2)c(C(F)(F)F)c1 (stereo not drawn)", "organism": "Salmonella typhimurium", "test": "SOS response, SOS/umu test", "test system": "TA1535/pSK1002", "conditions": "0.001 mg/mL, 4 h, without S9 activation", "endpoint": "umu induction factor", "value": 1.1}
{"Structure (SMILES)": "CC(=O)N1CCC(C(=O)N2CCN3C(=O)c4cc(-c5ccccc5)ccc4NC(=O)C3C2)CC1 (stereo not drawn)", "organism": "Escherichia coli", "test system": "WP2 uvrA", "conditions": "1.58 µg/plate, with rat liver S9", "scale": "reference: vehicle", "endpoint": "revertant fold increase", "value": 0.8}
{"Structure (SMILES)": "O=[N+]([O-])c1ccc(N2CCC(NCCC(O)c3ccc(F)c4ccccc34)CC2)c(C(F)(F)F)c1 (stereo not drawn)", "organism": "Salmonella typhimurium", "test": "SOS/umu test", "test system": "TA1535/pSK1002", "conditions": "0.031 mg/mL, 4 h, with S9, full range", "endpoint": "survival", "value": "79.6%"}
{"Structure (SMILES)": "[Cl-].[Cl-].[Pt+2].[Ru+2].c1ccc(-c2nccnc2-c2ccccn2)nc1.c1cnc2c(c1)ccc1cccnc12.c1cnc2c(c1)ccc1cccnc12", "organism": "Danio rerio", "test system": "embryos", "conditions": "75 µM, 72 h", "endpoint": "hatching rate", "value": "6.67 ± 5.7%"}
{"note": "Repeated from above:"}
{"Structure (SMILES)": "CC[C@H](C)[C@H](NC(=O)[C@H](CCCCN)NC(=O)[C@@H](NC(=O)[C@H](Cc1ccc(O)cc1)NC(=O)[C@H](CCCCN)NC(=O)[C@H](CCCCN)NC(=O)CNC(=O)[C@H](CCCCN)NC(=O)[C@@H](NC(=O)[C@H](C)NC(=O)[C@H](CC(C)C)NC(=O)[C@H](Cc1c[nH]c2ccccc12)NC(=O)CNC(=O)[C@@H](NC(=O)[C@H](Cc1ccccc1)NC(=O)[C@H](CCCCN)NC(=O)[C@H](CC(C)C)NC(=O)[C@H](Cc1ccccc1)NC(=O)[C@H](C)NC(=O)CNC(=O)[C@@H](N)CCSC)C(C)C)[C@@H](C)O)C(C)C)C(=O)N[C@@H](C)C(=O)N[C@@H](Cc1c[nH]c2ccccc12)C(=O)N[C@@H](CC(=O)O)C(=O)N[C@@H](Cc1c[nH]cn1)C(=O)N[C@@H](CCCCN)C(=O)NCC(=O)N[C@H](C(=O)N[C@H](C(=O)N[C@@H](CCSC)C(=O)N[C@@H](CCCCN)C(=O)N[C@@H](Cc1c[nH]c2ccccc12)C(=O)N[C@@H](CC(C)C)C(=O)N[C@@H](CC(N)=O)C(=O)N[C@@H](C)C(=O)NCC(=O)N[C@@H](CCC(N)=O)C(=O)N[C@H](C(=O)N[C@@H](Cc1ccccc1)C(=O)N[C@H](C(=O)N[C@@H](Cc1c[nH]c2ccccc12)C(=O)N[C@H](C(=O)N[C@@H](Cc1ccc(O)cc1)C(=O)N[C@@H](CCC(=O)O)C(=O)N[C@@H](CCC(N)=O)C(=O)N[C@H](C(=O)N[C@@H](CCCCN)C(=O)N[C@@H](CCCCN)C(=O)N[C@@H](CC(C)C)C(=O)N[C@@H](Cc1c[nH]c2ccccc12)C(=O)N[C@H](C(=O)O)[C@@H](C)O)[C@@H](C)CC)C(C)C)[C@@H](C)O)[C@@H](C)O)[C@@H](C)CC)[C@@H](C)O", "organism": "Pediococcus damnosus", "test system": "CECT 4797", "conditions": "30 min, 100 °C", "endpoint": "MIC after heating", "value": "24 µg/mL"}
